Published values pooled from the literature.
Every numbered part comes from another study and shows a few of its results, in no order. Positions count from the first letter of the parent shown.

Series 1 — technique: protein binding microarray; form: double-stranded DNA, one strand shown; medium: in vitro; tested at: not given; baseline: not given; direction: higher = stronger binding
Target: Histone acetyltransferase KAT6A, winged helix 1, GST fusion (KAT6A, Homo sapiens, UniProt Q92794, residues 1-85)
Notes: 8-mer, flanks averaged, mean of 2 arrays, mostly near background
Target sequence (chain): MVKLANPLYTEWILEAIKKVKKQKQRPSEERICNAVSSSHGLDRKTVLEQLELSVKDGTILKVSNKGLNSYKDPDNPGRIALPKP
Strand	E-score
TTAGCAAA	-0.101
AATCATGG	-0.232
CATAATGG	-0.112
AGAAAGAC	-0.0966
GATTTACC	-0.0359
ACCCATCG	-0.0949
CGGTTAAA	0.056
CAGCACGA	-0.162
TCTTTGAA	-0.0781
GAAAATGC	-0.127
CAAAGCAA	-0.0213
CTCCGTCC	0.108
TCCGTGAA	0.101
AGCAACTA	-0.157
ACTCGGCG	0.273
AGCCGCGG	0.463
ACCTTGCC	0.0672
GAGACAAA	-0.246
ACAGAAAT	-0.218
CGTTACAG	-0.0533
CCTATTTC	-0.204
GATACCCA	-0.105

Series 2 — technique: RNA Bind-n-Seq; form: RNA; medium: in vitro; tested at: 200 nM; notes: whole 134-nt RNA, ends assumed; with: 150 mM LiCl; baseline: input library; direction: higher = stronger binding; library: 7-deaza-guanosine replaces G
Target: Ras GTPase-activating protein-binding protein 1, full length (G3BP1, Homo sapiens, UniProt Q13283)
Chain of UniProt Q13283 (whole entry, looked up): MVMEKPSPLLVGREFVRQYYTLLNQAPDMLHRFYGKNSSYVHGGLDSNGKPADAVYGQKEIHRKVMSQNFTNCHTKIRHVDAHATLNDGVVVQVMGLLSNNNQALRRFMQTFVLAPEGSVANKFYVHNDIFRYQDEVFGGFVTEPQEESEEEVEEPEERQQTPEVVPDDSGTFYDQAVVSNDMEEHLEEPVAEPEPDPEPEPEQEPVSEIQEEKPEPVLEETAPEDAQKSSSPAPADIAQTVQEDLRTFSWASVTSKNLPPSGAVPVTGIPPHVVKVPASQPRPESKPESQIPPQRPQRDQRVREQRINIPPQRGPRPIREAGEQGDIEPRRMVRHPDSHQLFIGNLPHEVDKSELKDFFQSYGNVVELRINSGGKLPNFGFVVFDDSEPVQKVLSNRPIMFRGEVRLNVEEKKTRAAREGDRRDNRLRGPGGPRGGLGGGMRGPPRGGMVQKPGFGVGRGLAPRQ
All sequences stand within: GGGAGUUCUACAGUCCGACGAUC … UGGAAUUCUCGGGUGUCAAGG
Strand	log2 enrichment
GGGGUGAGCACAGACAGGAUCGCAGGGAGAGGCCGUAUUAAUUAGCCUGGCUCCCCAGGUUCUGGAACAGCUUUUUGUCCUGUACCCAGU	0.751
CUCAAGUCCUGUGCUACACAUCGUAUGUACCGAAUCGGGAAGGGAAGGAAGGGAAAGUAUUAUGUUACGCCGUUCGGAUCUGCACUUCCA	-0.219
AAGUCCUGUGCUACACAUCGUAUGUACCGAAUCAAAUUUAAACCCAAAUUUUUAAAAAAGUAUUAUGUUACGCCGUUCGGAUCUGCACUU	-1.11
UUUGACGCGGUGUGUUACGUGGGGGAGAGAAUAAAACUCCAGCGAGAUCCGGGCCGUGAACGAAAGCAGUGACGGAGGAGCUUGUACCAC	0.566
CUGUGCUACACAUCGUAUGUACCGAAUCGGGGAAAAAAAGGGGUUUGGGGUUUUUUUGGGGAAAGUAUUAUGUUACGCCGUUCGGAUCUG	-0.234
UAACUUUAGAGGAGGAUCUGAUGGAUAUGGCAGUGGACGUGGAUUUGAGGAUGGCUAUAAUGGGUAUGGAGGAGGACCUGGAGGUGGCAA	-0.142
AAGUCCUGUGCUACACAUCGUAUGUACCGAAUCGGGUUUUUGGGUUUGGGAAAGGGAAAGUAUUAUGUUACGCCGUUCGGAUCUGCACUU	-0.742
AAGUCCUGUGCUACACAUCGUAUGUACCGAAUCGGGGCCCCGGCCCCGGGCCCCGGGAAAGUAUUAUGUUACGCCGUUCGGAUCUGCACU	-1.46
UCCUCAAGUCCUGUGCUACACAUCGUAUGUACCGAAUCGGUGGUGGGGUGGAAAGUAUUAUGUUACGCCGUUCGGAUCUGCACUUCCAGC	0.596
UAACUUUAGAGGAGGUUCUGAUGGAUAUGGCAGUGGACGUGGAUUUGGGGAUGGCUAUAAUGGGUAUGGAGGAGGACCUGGAGGUGGCAA	-0.271
UCCUCAAGUCCUGUGCUACACAUCGUAUGUACCGAAUCGGGCGGCGGCGGGAAAGUAUUAUGUUACGCCGUUCGGAUCUGCACUUCCAGC	1.15

Series 3 — technique: RNA Bind-n-Seq; form: RNA; medium: in vitro; tested at: 365 nM; baseline: no-protein control; direction: higher = stronger binding
Target: RNA binding protein fox-1 homolog 2, RRM domain, GST-SBP tag (RBFOX2, Homo sapiens, UniProt O43251-10, residues 100-194)
Notes: natural RNA segment, single round, ends assumed
All sequences stand within: GGGAGUUCUACAGUCCGACGAUC … UGGAAUUCUCGGGUGCCAA
Construct (chain): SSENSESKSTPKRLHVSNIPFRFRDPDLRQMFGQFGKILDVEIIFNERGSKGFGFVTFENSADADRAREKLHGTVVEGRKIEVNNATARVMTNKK
Strand	RBNS enrichment (R)
CACACAGCCCUCUGGGUGCUUGGGAACUAGCUUCAGGCACAGCCUGAUUCUGGUGAUCCAGUGAUCUAUGGAAGUCGUGUCUUACUCCAGGUGAAGGGGGAAAAAAAAAG	0.51
ACCCAUCAAUAUGGAAUUUUGGGAGCCGACCUGAGUGCAAAUCCUAAUUCUGCCCCUGUUGGUGCAGAUGGCUGUGGGCGGCUCACUUGACCUUUUAGAGUCUGCAUACC	0.39
GGUAGGAGUCAGGGCCCAUCCAGACCAGUCACCAUCCAGCCAUGCACUGUCAUCAUCACCCAUAAUGCCUGCAAAGGCCUAGCGGUCCUCAGCCCUGCACAUGAGAGAGG	0.304
GCUUUGUGUAAAUACAUCUUUAACAUUUGGGUGGAGAGGGGCCUUAAGAAGGACAGUUCAUUGUAGGAAAGCAAUUCUGUACAUGAGUUUAAGCAUUCUUGUUGCAUUGU	0.626
AAGACAGGAUGCAGACAACGCUCAUGGGUUUUAACUUAUUUUUCUUUAAUAAAAUACCUCCUCCUCCUUUUGAGGUCUUUUAUUGCAGAGCUCACACCUUCAGCAGCCAG	0.432
GGAUGUCUCUCCUUCCUUACUGUGGCUUCUGCAUGCACUUACACUGUACUUGACGGCUGGCCUCCAGGGUCUCUCUUGCUUUGUACUGGUUCCCCUCUUUACCUUCACCA	12.1
UCUAGUUAAAUAGCACAGUUUGGAAACUUGUCUGAGACUGACUUUAUCAAUAAUCUAACCGACAAAGAUCAUAUCCAUGUGUAUGUGGUUAGACAUUUUUAUUUCAUUGA	0.504
UUCAUGCCAUCUGUUUUCAACCAACUAUUUUUGAGGAAUUAUCAUGGGAAAAGACCAGGGCUUUUCCCAGGAAUAUCCCAAACUUCGGAAACAAGUUAUUCUCUUCACUC	0.432
UGAAGUAGCCCUUAAUCCUAACUUUUAAGCAAAAUCCCUUGGCCGCACUUUUAAGGUUUGGUUGUUUUUUAUAUAUAUAUGUGUAUAGUUACCAACUUAAAAAUAAAAAA	0.813
AUCUGGCCCAAAUGAAGCAUACCCUGUCACGCCCUUGGGAAAACAAAUAGGACCGAACAAAGCUACAUGAACACACCUGCUGUAGAGUUGAGGGGACCUCUCACCUGGUC	0.662
UUCUCUCUAUCUGGAAUUUAAUUAAUCGAAAUGAAUUUAUCUGAAUAUAGGAAGCAUAUGCCUACUUGUAAUUUCUAACUCCUUAUGUUUGAAGAGAAACCUCCGGUGUG	0.615
CCCACAUCCUCUUGGGGACUCAGAGCACUCCUCUCCUUCCACUCCCAAAGACACGGGUAUUCCAGACCCGGUCUGCCUCCCUACCAGCCUUCUUAGGCUCUGUCGUGUGA	0.439

Series 4 — technique: protein-binding microarray; form: double-stranded DNA, one strand shown; medium: in vitro; tested at: not given; direction: higher = stronger binding
Target: Protein max, full length (MAX, Homo sapiens, UniProt P61244-2, residues 1-151)
Notes: k-mer, scored over probes, only values ≥0.25
Strand	E-score
CCAGTCAC	0.292
ACATGACA	0.355
ACGCTACG	0.307
ACGGGTGG	0.254
AGCATGCA	0.42
CGCACCAC	0.325
CGTGCCAA	0.365
CATCGTGA	0.357
CCCTCCAC	0.255
ACGAGGTC	0.306
CGCCATGA	0.263
ACGTGGGA	0.438
CATGACTC	0.27
AGACGCAT	0.26
AAGCGTGG	0.444
CCACACCC	0.292
CCCCTCCA	0.307
CAATGTGA	0.354
GTGTGCGA	0.284
ACACATTG	0.334
CATGCCAC	0.4
AACCGCGT	0.356
ACACGCGT	0.458
CACGGGAG	0.29
CATGTGAC	0.486

Series 5 — target: CCNA1, cyclin fold, Cln2 fusion (human); technique: yeast growth competition, sequencing; medium: yeast; notes: weak parent motif; baseline: not given; direction: higher = stronger binding
Starting sequence: BRCA2 docking peptide (human); PSIKRNLLNEFDR; partner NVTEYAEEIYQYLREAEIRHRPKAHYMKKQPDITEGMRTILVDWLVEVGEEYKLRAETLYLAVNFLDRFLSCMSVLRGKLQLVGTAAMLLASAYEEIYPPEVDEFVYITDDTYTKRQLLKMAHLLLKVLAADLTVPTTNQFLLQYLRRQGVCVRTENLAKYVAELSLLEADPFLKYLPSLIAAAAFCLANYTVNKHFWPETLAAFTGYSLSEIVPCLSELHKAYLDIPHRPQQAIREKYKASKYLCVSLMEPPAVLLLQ
Change	normalised enrichment score
PSEKRNLLNEFDR [I3E]	0.158
PMIKRNLLNEFDR [S2M]	0.278
PSIKRNLLNPFDR [E10P]	0.196
PSIMRNLLNEFDR [K4M]	0.291
PGIKRNLLNEFDR [S2G]	0.578
PSIKRNLLNEFDG [R13G]	0.532
PSIKRNLLSEFDR [N9S]	0.542
PSIKRWLLNEFDR [N6W]	0.27
PSIVRNLLNEFDR [K4V]	0.564
PSTKRNLLNEFDR [I3T]	0.107
PSIKHNLLNEFDR [R5H]	0.216
PSIKYNLLNEFDR [R5Y]	0.145
PSRKRNLLNEFDR [I3R]	0.229
CSIKRNLLNEFDR [P1C]	0.739
PSIKRNLLNEFDK [R13K]	0.242
PQIKRNLLNEFDR [S2Q]	0.556
PSIKRNLINEFDR [L8I]	0.558
PSIKRNLKNEFDR [L8K]	0.38
PSIKRNLYNEFDR [L8Y]	0.22
PSIKRNLLNEFDT [R13T]	0.675
PSIKRNLLDEFDR [N9D]	0.53
RSIKRNLLNEFDR [P1R]	0.596

A few entries again (series 1):
Strand	E-score
ACAGAAAT	-0.218
CGGTTAAA	0.056
GAGACAAA	-0.246
AGCAACTA	-0.157
AGCCGCGG	0.463
CCTATTTC	-0.204
ACTCGGCG	0.273
